Results of several laboratories.
Lines come from different studies, so protocols differ. Values joined by “and” are separate records of one study, mostly repeats; a detail may differ. Numbers after ± are the reported error.
BCHE: Cholinesterase (BCHE, Homo sapiens, UniProt P06276)
Chain of UniProt P06276 (whole entry, looked up): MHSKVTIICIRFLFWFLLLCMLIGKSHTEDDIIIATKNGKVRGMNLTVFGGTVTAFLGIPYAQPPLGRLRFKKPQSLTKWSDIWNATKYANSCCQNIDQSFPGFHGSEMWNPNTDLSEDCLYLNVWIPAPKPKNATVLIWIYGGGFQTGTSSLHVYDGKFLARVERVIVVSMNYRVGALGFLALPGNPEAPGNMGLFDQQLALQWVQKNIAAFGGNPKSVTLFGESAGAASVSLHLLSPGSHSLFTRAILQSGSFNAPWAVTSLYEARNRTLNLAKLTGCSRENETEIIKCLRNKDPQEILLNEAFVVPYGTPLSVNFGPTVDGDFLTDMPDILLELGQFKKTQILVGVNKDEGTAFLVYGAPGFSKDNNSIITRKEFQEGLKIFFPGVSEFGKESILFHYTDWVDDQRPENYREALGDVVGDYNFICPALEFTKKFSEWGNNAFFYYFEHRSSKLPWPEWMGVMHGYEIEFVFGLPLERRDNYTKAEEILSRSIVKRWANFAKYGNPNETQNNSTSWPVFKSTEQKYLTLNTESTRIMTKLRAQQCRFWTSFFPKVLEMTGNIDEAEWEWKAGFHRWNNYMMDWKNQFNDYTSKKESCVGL
Chain of UniProt Q01959 (whole entry, looked up): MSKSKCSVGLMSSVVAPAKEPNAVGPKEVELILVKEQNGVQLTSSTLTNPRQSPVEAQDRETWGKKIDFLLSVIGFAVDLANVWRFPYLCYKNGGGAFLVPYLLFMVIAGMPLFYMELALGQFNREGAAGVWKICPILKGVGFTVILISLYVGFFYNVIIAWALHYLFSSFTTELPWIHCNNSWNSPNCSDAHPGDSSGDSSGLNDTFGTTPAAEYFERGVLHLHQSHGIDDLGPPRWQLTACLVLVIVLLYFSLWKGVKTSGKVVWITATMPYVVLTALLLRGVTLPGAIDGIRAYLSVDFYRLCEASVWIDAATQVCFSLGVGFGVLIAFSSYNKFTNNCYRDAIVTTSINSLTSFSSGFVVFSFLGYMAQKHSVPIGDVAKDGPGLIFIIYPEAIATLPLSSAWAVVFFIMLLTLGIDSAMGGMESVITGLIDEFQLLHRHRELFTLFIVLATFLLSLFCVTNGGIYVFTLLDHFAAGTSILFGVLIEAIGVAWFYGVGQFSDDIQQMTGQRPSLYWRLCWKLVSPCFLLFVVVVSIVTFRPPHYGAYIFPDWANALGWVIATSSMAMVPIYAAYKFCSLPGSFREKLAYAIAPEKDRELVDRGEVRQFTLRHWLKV
Chain of UniProt Q9UNW8 (whole entry, looked up): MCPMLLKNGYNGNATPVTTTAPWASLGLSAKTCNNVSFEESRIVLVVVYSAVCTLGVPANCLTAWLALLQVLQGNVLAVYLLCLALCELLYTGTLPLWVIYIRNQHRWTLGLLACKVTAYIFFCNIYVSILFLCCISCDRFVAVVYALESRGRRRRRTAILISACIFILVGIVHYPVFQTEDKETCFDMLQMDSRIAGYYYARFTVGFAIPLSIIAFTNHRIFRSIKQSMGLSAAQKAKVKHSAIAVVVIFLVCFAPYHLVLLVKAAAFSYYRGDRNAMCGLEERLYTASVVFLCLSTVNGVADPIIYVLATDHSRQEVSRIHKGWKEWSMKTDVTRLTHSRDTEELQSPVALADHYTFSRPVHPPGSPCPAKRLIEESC
Chain of UniProt P35408 (whole entry, looked up): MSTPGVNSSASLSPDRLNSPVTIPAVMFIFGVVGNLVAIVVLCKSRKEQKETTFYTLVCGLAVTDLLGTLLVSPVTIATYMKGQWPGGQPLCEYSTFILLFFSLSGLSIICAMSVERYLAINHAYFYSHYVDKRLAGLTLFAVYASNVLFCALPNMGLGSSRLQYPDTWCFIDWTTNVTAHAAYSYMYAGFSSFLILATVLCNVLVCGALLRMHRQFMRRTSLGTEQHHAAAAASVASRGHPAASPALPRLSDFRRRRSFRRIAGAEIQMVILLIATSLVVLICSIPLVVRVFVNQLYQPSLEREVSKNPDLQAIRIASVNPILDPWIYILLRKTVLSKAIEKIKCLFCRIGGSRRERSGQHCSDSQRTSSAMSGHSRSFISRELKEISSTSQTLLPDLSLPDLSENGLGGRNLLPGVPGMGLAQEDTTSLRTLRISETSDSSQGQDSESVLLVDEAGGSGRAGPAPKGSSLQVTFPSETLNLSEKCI
Chain of UniProt Q92743 (whole entry, looked up): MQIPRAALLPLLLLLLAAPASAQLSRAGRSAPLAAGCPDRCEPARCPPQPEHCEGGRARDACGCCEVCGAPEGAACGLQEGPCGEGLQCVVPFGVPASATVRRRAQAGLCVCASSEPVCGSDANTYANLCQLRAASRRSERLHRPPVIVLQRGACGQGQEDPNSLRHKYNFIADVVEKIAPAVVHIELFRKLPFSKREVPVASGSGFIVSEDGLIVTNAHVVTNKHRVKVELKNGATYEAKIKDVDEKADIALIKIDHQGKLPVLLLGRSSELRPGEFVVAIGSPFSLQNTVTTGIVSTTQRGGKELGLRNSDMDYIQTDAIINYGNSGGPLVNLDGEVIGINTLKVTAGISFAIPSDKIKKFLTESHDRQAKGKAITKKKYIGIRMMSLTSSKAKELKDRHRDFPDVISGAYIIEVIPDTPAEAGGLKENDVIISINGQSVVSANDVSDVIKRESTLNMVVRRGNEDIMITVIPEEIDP
Chain of UniProt P08173 (whole entry, looked up): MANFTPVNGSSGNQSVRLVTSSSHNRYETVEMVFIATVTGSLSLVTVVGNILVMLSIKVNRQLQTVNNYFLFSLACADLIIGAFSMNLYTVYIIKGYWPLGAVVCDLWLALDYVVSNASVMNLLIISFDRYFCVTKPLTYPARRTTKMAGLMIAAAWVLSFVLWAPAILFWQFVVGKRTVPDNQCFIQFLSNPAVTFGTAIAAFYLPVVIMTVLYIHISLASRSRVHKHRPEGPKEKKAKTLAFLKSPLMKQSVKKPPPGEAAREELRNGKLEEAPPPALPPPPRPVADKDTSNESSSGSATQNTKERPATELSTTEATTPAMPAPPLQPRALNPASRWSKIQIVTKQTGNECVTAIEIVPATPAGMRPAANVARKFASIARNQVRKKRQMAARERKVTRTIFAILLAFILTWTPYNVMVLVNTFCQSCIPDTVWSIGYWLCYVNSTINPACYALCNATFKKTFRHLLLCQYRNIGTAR
Chain of UniProt O43242 (whole entry, looked up): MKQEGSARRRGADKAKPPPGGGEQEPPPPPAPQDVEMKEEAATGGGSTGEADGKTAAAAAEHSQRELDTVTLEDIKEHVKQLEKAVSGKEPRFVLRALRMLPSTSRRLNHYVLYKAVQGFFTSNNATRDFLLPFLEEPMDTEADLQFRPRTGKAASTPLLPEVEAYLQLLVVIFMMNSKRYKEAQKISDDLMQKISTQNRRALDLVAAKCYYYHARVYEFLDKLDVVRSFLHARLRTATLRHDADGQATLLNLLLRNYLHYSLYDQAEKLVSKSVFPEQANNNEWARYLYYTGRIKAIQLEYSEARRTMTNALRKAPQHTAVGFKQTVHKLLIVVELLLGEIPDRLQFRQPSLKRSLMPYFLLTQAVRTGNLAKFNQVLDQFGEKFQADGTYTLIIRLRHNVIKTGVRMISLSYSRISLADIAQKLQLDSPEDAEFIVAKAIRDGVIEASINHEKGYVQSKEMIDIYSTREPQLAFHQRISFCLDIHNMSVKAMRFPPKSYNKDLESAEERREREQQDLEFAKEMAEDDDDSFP
Chain of UniProt P14416 (whole entry, looked up): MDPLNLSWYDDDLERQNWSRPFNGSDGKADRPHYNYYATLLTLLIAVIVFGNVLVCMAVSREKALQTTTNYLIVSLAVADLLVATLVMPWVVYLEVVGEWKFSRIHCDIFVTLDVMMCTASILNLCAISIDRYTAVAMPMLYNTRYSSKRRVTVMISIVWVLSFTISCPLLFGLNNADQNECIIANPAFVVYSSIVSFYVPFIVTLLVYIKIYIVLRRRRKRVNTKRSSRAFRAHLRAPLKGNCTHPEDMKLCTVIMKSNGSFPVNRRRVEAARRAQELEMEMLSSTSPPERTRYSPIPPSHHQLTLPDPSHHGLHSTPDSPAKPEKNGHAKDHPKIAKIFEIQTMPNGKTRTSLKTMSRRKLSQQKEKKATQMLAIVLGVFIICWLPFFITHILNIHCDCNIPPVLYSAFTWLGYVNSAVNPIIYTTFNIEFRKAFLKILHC
Chain of UniProt P08631 (whole entry, looked up): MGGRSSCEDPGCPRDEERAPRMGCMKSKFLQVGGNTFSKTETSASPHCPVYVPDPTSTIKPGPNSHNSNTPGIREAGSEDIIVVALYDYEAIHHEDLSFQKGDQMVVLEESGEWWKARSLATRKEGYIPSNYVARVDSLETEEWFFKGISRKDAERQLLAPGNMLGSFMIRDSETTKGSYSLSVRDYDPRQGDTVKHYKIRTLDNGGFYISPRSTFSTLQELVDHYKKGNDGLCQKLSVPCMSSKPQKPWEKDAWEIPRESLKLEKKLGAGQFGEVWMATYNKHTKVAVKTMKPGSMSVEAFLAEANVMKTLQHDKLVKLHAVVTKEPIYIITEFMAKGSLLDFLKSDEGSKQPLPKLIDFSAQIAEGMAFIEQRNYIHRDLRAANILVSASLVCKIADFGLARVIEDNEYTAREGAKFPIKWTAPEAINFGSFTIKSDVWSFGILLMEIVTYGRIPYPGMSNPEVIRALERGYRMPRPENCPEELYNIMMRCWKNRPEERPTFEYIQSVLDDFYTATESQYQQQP

Oc1ccc2c3c1O[C@H]1[C@@H](O)CC[C@@]4(O)[C@@H](C2)N(CC2CCC2)CC[C@]314: “log2 fold change” -0.169 (GPR132 (Homo sapiens, UniProt Q9UNW8); β-arrestin recruitment, TANGO luminescence; concentration not given; baseline: basal luminescence).
CC[C@H](C)[C@H](NC(=O)CNC(=O)[C@@H](N)CCCCN)C(=O)N[C@@H](CC(C)C)C(=O)N[C@@H](CCCCN)C(=O)N[C@@H](CCCNC(=N)N)C(=O)N[C@@H](CCC(=O)O)C(=O)N[C@@H](CCCCN)C(=O)N[C@@H](CCCNC(=N)N)C(=O)N[C@@H](CC(C)C)C(=O)N[C@@H](CCCNC(=N)N)C(=O)N[C@@H](CCCNC(=N)N)C(=O)N[C@@H](CCCCN)C(=O)N[C@@H](CC(N)=O)C(=O)N[C@H](C(=O)N[C@@H](Cc1c[nH]cn1)C(=O)N[C@@H](Cc1c[nH]c2ccccc12)C(=O)N1CCC[C@H]1C(=O)N[C@@H](CCC(=O)O)C(=O)N[C@@H](CCC(=O)O)C(=O)NCC(=O)N[C@@H](CCCCN)C(=O)N[C@@H](CC(C)C)C(=O)N[C@@H](CCCNC(=N)N)C(=O)N[C@@H](CCC(=O)O)C(=O)N[C@@H](Cc1ccccc1)C(=O)N[C@@H](Cc1ccccc1)C(=O)N[C@@H](Cc1ccccc1)C(=O)N[C@@H](Cc1ccccc1)C(=O)N[C@@H](CCC(=O)O)C(=O)N[C@@H](CC(C)C)C(=O)N[C@@H](CC(=O)O)C(=O)N[C@@H](CCC(=O)O)C(=O)N[C@@H](C)C(=O)N[C@@H](CCC(=O)O)C(=O)N[C@@H](CCCNC(=N)N)C(=O)N[C@H](C(=O)N[C@@H](CC(N)=O)C(=O)N[C@H](C(=O)O)C(C)C)C(C)C)C(C)C — result for “log2 fold change”: -0.01 (HeLa and HEK-293T cells; phosphatase bead binding, competitive inhibitor, PIB pulldown iBAQ LC-MS/MS, item: PPP4R4; concentration not given; baseline: untreated control).
C[C@@H](N[C@H]1CCCC[C@@H]1NC(=O)c1ccc(Cl)cc1)c1cccc2ccccc12.Cl gave an efficacy of -111 ± 10.3% (BCHE; concentration not given, Triton).
For C[C@]1(O)CC[C@@]2(C)[C@@H](CC[C@@H]3[C@@H]2CC[C@]2(C)[C@@H]([N+](=O)[O-])CC[C@@H]32)C1, activity read “inactive” ([3H]flunitrazepam binding; rat cerebral cortex homogenate; concentration not given).
The IC50 of CP(=O)(O)CCCN is reported as 3.16 µM (Plasmodium falciparum; 7G8).
CN[C@@]1(c2ccccc2Cl)CCCCC1=O has an inhibition of 9% (D(2) dopamine receptor, short isoform (DRD2, Homo sapiens, UniProt P14416); radioligand binding, agonist, radioligand displacement; 30 µM).
Cl.Cl.Clc1ccccc1CNCC1CCC(CNCc2ccccc2Cl)CC1 (centres unmarked) has an efficacy of -83.8 ± 15.7% (BCHE; inhibitor).
For c1ccc2cc([C@]34CNC[C@H]3C4)ccc2c1, the dopamine uptake was 127% and 105% and 83% (SLC6A3 (Homo sapiens, UniProt Q01959); inhibitor, [3H]dopamine uptake; 100 pM; baseline: no inhibitor).
With C[C@H]1CN(c2n[nH]c3nc(N[C@H]4CC[C@H](NS(=O)(=O)CCC(F)(F)F)CC4)ncc23)CCO1 the relative abundance was 1.54 (PSMD3 (Homo sapiens, UniProt O43242); inhibitor, Kinobeads competition profiling; 0.8 µM; baseline: vehicle).
CC[C@H]1CN2CC[C@H]1C[C@H]2[C@H](O)c1ccnc2ccc(OC)cc12 has an efficacy of -90.6 ± 15.3% (BCHE; inhibitor).
O=C(Nc1cccnn1)N1CCC(=Cc2cccc(Oc3ccc(C(F)(F)F)cn3)c2)CC1 gave an inhibition of 104% (GABAA receptor chloride channel, rat; binding; 50 µM, added: [3H]TBOB).
With CC1(N2CCC(n3c([C@@H]4CCCNC4)nc4ccccc43)CC2)CCCCCCC1 the efficacy was -103 ± 19.9% (BCHE; concentration not given, Triton).
COc1ccc(N2C(=O)N(c3c(C)cccc3Cl)Cc3cnc(Nc4ccc(C5CCN(C)CC5)cc4OC)nc32)nc1 has an inhibition of 99% (HCK (Homo sapiens, UniProt P08631); kinase activity; 0.5 µM).
O=C(c1ccc(Cl)cc1)N1CCN2C(=O)N(OC(=O)N3CCOc4ccccc43)C(=O)C2C1 (centres unmarked) — result for “median protein ratio”: 1.15 (Serine protease HTRA1 (Homo sapiens, UniProt Q92743); MS-based ABPP; SW-620 conditioned medium; 10 µM, 1 h, 37 °C; baseline: compound over DMSO, lower = more inhibition).
With O=C(O)CCC(=O)O.c1ccc(C2(c3ccccc3)CC2C2=NCCN2)cc1 (centres unmarked) the efficacy was -101 ± 19.6% (BCHE; concentration not given, Triton).
CN(C(=O)n1cnc(-c2ccc[n+]([O-])c2)c1)C1CCCCC1 has an inhibition of 17.8% (Abhydrolase domain-containing protein 11 (Rattus norvegicus, UniProt D3ZXK4); probe labelling, inhibitor, competitive ABPP with azido-FP probe, item: Abhd11; rat brain soluble fraction; 10 µM).
For Cl.Nc1c2c(nc3c1CCC3)CCCC2.O, the efficacy was -102 ± 9.66% (BCHE; concentration not given, Triton).
CN1CCN(c2cc(-c3ccncc3)c(-c3ccc4ccccc4c3)nn2)CC1 gave an inhibition of 26.3% (CHRM4 (Homo sapiens, UniProt P08173); antagonist, FLIPR; 10 µM).
For NC(=Nc1ccccc1)NC(=O)c1nc(Cl)c(N)nc1N, the IC50 was 7.94 µM (Plasmodium falciparum; HB3).
The inhibition of O=C(Nc1cnccc1Cl)N1CCN(Cc2ccc3c(c2)OC(F)(F)O3)CC1 is reported as 7% (PTGER4 (Homo sapiens, UniProt P35408); binding, item: EP4; 50 µM, human, added: [3H]prostaglandin E2).
